Published values of several laboratories.
Each line is one published result; not all experiments were run side by side. “And” joins repeats or separate records; there may be more than shown. Numbers after ± are the reported error.
folP: Dihydropteroate synthase (folP, Bacteria, UniProt P0AC13)
Chain of UniProt P0AC13 (whole entry, looked up): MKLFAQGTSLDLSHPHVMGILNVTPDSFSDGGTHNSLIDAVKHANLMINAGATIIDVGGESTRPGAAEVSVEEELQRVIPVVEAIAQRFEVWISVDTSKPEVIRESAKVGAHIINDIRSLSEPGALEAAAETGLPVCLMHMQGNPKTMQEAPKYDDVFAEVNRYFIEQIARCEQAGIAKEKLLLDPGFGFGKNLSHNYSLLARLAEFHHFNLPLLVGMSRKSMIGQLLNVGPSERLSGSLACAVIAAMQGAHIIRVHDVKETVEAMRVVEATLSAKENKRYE
Large ribosomal subunit protein uL14: Large ribosomal subunit protein uL14 (Homo sapiens, UniProt P62829)
ALB: Albumin (ALB, Homo sapiens, UniProt P02768)
T1: RNA aptamer; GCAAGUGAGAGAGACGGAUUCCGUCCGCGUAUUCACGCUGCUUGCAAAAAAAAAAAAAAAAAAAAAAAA
T2: RNA aptamer; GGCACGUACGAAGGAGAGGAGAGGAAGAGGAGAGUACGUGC
Chain of UniProt Q8TDU9 (whole entry, looked up): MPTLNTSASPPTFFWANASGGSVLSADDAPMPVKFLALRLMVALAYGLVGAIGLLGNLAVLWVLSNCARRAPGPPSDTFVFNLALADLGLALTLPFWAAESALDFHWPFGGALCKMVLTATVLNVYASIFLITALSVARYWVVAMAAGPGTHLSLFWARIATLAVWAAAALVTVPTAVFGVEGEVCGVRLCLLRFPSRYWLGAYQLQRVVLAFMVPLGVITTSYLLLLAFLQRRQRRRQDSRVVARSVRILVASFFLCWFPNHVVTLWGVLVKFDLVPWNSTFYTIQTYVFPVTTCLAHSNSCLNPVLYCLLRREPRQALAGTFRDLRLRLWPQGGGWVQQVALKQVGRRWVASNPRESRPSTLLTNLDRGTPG
Chain of UniProt Q9NZQ7 (whole entry, looked up): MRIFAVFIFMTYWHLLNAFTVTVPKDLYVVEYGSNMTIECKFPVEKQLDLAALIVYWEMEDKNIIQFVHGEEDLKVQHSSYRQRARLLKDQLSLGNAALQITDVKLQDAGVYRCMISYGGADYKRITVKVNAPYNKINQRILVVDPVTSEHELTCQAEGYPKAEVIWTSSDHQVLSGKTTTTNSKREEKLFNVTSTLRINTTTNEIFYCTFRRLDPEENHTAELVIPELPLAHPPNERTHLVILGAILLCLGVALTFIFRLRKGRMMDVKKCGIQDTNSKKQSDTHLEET
Chain of UniProt P22314 (whole entry, looked up): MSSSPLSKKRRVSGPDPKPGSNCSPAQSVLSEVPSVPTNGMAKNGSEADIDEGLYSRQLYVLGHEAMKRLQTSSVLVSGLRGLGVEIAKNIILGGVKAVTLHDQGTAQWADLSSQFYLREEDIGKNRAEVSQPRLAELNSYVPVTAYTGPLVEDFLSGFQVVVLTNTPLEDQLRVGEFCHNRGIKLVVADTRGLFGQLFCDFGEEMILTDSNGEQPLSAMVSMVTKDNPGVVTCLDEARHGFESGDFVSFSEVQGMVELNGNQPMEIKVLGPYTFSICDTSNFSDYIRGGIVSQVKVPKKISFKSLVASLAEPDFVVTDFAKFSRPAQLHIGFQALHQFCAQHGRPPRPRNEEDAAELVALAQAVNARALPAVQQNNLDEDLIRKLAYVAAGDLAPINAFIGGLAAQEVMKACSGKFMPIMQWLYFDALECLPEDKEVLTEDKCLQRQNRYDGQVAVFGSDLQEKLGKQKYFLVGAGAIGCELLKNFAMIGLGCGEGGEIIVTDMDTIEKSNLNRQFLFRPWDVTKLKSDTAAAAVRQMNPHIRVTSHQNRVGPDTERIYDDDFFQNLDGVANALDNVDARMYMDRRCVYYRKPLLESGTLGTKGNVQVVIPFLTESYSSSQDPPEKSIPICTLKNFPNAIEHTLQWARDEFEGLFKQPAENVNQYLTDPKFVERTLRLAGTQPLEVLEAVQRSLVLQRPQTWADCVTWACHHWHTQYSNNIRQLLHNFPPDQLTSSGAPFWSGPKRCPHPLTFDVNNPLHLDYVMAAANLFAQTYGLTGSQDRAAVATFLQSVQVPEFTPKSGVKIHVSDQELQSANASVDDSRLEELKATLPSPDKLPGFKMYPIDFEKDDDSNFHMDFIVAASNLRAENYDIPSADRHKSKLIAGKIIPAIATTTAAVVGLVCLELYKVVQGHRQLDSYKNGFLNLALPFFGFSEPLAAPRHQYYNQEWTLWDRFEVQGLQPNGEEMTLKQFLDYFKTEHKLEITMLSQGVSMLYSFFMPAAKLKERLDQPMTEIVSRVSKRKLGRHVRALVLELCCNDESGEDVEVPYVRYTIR
Chain of UniProt P18031 (whole entry, looked up): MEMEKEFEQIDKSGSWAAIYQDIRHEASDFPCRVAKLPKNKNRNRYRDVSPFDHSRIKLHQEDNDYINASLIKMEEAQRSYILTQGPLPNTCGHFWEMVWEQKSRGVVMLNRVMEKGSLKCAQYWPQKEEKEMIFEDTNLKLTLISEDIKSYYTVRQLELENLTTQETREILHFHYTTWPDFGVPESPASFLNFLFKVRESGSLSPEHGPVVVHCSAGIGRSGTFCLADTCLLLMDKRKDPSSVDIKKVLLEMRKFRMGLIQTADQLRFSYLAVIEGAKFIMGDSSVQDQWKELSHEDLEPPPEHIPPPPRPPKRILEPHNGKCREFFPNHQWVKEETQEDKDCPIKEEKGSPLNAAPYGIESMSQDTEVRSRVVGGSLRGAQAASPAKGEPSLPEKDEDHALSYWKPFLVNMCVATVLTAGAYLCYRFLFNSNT
Chain of UniProt O15151 (whole entry, unmodified, looked up): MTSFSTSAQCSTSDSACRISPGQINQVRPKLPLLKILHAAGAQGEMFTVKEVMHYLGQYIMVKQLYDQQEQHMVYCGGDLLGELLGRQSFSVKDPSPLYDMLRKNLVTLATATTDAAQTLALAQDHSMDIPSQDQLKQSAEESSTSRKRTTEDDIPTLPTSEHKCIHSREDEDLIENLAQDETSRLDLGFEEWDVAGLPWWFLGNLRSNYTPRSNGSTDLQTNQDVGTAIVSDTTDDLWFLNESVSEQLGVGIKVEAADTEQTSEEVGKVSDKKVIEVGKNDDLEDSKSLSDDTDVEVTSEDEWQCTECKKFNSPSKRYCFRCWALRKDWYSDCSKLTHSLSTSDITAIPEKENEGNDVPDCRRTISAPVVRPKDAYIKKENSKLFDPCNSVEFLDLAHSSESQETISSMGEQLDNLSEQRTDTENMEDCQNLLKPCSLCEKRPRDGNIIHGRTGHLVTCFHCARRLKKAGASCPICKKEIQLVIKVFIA
Chain of UniProt Q9HB29 (whole entry, looked up): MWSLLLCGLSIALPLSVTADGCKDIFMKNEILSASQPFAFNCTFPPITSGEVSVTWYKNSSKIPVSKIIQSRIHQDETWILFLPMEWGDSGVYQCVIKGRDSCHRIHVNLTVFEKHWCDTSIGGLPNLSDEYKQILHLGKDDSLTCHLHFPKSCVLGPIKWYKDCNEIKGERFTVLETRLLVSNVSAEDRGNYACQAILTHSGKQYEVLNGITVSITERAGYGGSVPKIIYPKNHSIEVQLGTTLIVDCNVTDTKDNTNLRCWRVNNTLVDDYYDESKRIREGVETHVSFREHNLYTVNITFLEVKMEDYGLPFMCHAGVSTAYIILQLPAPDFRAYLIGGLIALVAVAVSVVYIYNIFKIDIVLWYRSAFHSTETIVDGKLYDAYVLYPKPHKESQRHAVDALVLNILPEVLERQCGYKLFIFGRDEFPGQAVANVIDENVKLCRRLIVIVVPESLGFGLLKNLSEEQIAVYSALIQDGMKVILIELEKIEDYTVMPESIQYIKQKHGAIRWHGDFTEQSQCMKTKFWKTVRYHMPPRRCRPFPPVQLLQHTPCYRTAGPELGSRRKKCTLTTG
Chain of UniProt Q13148 (whole entry, looked up): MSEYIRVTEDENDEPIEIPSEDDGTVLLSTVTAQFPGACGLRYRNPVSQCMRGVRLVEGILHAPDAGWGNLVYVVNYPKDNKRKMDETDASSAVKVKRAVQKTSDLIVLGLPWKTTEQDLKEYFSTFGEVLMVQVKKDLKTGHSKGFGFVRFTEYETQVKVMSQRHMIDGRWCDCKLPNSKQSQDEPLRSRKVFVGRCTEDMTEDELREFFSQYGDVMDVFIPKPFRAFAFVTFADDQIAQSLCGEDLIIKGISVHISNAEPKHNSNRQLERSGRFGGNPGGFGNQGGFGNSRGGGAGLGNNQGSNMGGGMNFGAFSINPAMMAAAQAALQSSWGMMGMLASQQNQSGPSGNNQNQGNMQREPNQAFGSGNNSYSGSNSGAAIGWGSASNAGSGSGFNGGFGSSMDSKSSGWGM
Chain of UniProt P08191 (whole entry, unmodified, looked up): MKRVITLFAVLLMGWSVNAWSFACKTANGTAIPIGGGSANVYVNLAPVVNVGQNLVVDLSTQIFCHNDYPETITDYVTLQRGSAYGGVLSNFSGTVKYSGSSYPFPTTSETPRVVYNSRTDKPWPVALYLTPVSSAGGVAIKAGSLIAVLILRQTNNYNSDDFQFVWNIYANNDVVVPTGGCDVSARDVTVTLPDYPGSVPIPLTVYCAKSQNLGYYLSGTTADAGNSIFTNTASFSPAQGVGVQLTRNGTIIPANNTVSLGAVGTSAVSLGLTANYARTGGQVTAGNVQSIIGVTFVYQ

The ΔTm of `CC(=O)N[C@H]1C(n2cc([C@@](C)(O)c3cccc(F)c3)nn2)O[C@H](COCc2ccccc2)[C@H](OCc2ccccc2)[C@@H]1OCc1ccccc1` (stereo partly drawn) is reported as 0.41 °C (Protein Mdm4 (MDM4, Homo sapiens, UniProt O15151); thermal stability, DSF; 30 µM).
`Cc1n[nH]c2nc(N)[nH]c(=O)c2c1=O` — result for “melting temperature shift”: 1.13 °C (folP; CETSA HiBiT; Escherichia coli, whole cells; concentration not given; baseline: DMSO).
The cAMP accumulation of `CC[C@H](C)[C@@H]1NC(=O)[C@H](Cc2ccccc2)NC(=O)[C@H](CCC(=O)O)NC(=O)[C@H](CCCNC(=N)N)NC(=O)CNC(=O)[C@@H](NC(=O)[C@H](CC(C)C)NC(=O)[C@H](CCCNC(=N)N)NC(=O)[C@@H](NC(=O)CNC(=O)[C@H](Cc2ccc(O)cc2)NC(=O)[C@@H]2CCCN2C(=O)[C@H](C)NC(=O)[C@H](C)NC(=O)[C@@H](N)CCCNC(=N)N)C(C)C)CSSC[C@@H]2NC(=O)[C@@H](NC(=O)[C@H](CO)NC(=O)[C@H](CO)NC(=O)[C@H](CO)NC(=O)[C@H](CC(C)C)NC(=O)CNC(=O)[C@H](C)NC(=O)[C@H](CC(C)C)NC(=O)[C@@H](NC(=O)[C@@H](N)CC(=O)O)C(C)C)CSSC[C@H](NC(=O)CNC(=O)[C@H](Cc3c[nH]c4ccccc34)NC(=O)[C@H](CCCCN)NC2=O)C(=O)N[C@@H](CO)C(=O)N[C@@H](CCCCN)C(=O)N[C@@H](CO)C(=O)N[C@@H](CCC(=O)O)C(=O)N[C@@H]([C@@H](C)CC)C(=O)N[C@@H](CO)C(=O)N[C@@H](CO)C(=O)N[C@@H](CC(C)C)C(=O)N[C@H](C(=O)O)CSSC[C@@H](C(=O)NCC(=O)NCC(=O)N[C@@H](CO)C(=O)N[C@@H](CCCNC(=N)N)C(=O)N[C@@H](Cc2c[nH]c3ccccc23)C(=O)O)NC(=O)[C@H]([C@@H](C)O)NC(=O)[C@H](Cc2ccccc2)NC(=O)[C@H]([C@@H](C)CC)NC(=O)[C@H](C(C)C)NC(=O)[C@H](C)NC(=O)[C@H](CCCNC(=N)N)NC1=O` is reported as 2.65% and 8.71% and -1.92% (Relaxin-3 receptor 2 (RXFP4, Homo sapiens, UniProt Q8TDU9); agonist; 125 nM, wild-type receptor).
For `CCCC1(C)C(=O)N(c2cccc(CN3CCN(Cc4ccc(Br)cc4)CC3)c2)C1=O`, “activity vs control” read 52% (Dipeptidyl peptidase 9 (DPP9, Homo sapiens, UniProt Q86TI2); enzyme activity, inhibitor; 5 µM).
`Nc1nc2[nH]nc(CC(=O)O)c(=O)c2c(=O)[nH]1` — result for “melting temperature shift”: 5.72 °C (folP; CETSA HiBiT; Escherichia coli, whole cells; concentration not given; baseline: DMSO).
The Kd of `Fc1ccc(Nc2nc(NCc3ncccn3)nc(Nc3ccccc3)n2)cc1` is reported as 15 nM (T1, RNA aptamer; SPR; 25 °C, read off a plot).
The ΔG of `CC[C@H](C)[C@H](NC(=O)[C@H](Cc1c[nH]cn1)NC(C)=O)C(=O)N[C@@H](CCCCN)C(=O)N[C@H](C(=O)N[C@@H](Cc1c[nH]cn1)C(=O)N[C@@H](CC(C)C)C(=O)N[C@@H](CC(=O)O)C(=O)N[C@@H](CCC(=O)O)C(=O)N[C@@H](CCC(=O)O)C(=O)N[C@H](C(=O)NCC(=O)N[C@@H](CCC(=O)O)C(=O)N[C@@H](CCCCN)C(=O)N[C@H](C(=O)N[C@@H](CO)C(=O)N[C@H](C(=O)N[C@H](C(=O)N[C@@H](CC(C)C)C(=O)N[C@@H](CC(=O)O)C(=O)N[C@H](C(N)=O)C(C)C)[C@@H](C)O)[C@@H](C)CC)[C@@H](C)O)[C@@H](C)O)[C@@H](C)O` is reported as -9.43 ± 0.06 kcal/mol (Kelch-like ECH-associated protein 1, Kelch domain (KEAP1, Homo sapiens, UniProt Q14145); binding, ITC; pH 7, 298.15 K).
`CCCCCCCO[C@H]1O[C@H](CO)[C@@H](O)[C@H](O)[C@@H]1O` gave a -TΔS of -0.359 kcal/mol (Type 1 fimbrin D-mannose specific adhesin, lectin domain (fimH, Escherichia coli K-12, UniProt P08191); binding, isothermal titration calorimetry; 15 °C, global fit of two titrations).
With `C[C@H](NC(=O)CN)C(=O)NCC(=O)N[C@@H](C)C(=O)N[C@@H](C)C(=O)NCC(=O)NCC(=O)N[C@@H](C)C(=O)NCC(=O)NCC(=O)NCC(=O)NCC(=O)NCC(=O)NCC(=O)NCC(=O)N[C@@H](CCCCNC(=O)CCCC[C@@H]1SC[C@@H]2NC(=O)N[C@@H]21)C(N)=O` the binding rate was 1.09% and 1.19% and 0.95% (Programmed cell death 1 ligand 1 (CD274, Homo sapiens, UniProt Q9NZQ7); flow cytometry; hPD-L1-expressing cells; concentration not given).
For `N#CN1CC[C@H](C(=O)Nc2nc3c(s2)CN(C(=O)Cn2cc(COCCOCCOCCOCCNC(=O)CCCC[C@@H]4SC[C@@H]5NC(=O)N[C@@H]54)nn2)CC3)C1`, the iBAQ abundance was 588000 and 743000 and 663000 (Ubiquitin-like modifier-activating enzyme 1 (UBA1, Homo sapiens, UniProt P22314); probe binding, affinity probe, neutravidin pull-down LC-MS/MS; HEK293T, cell lysate; 5 µM, 1 h, single replicate, unit not given; higher = more pulled down).
For `O=C1c2sc(-c3ccc(N4CCC(F)C4)nc3F)nc2CCN1c1cccnc1` (stereo not drawn), the specific binding was 18.1 nM (TAR DNA-binding protein 43, aggregated (TARDBP, Homo sapiens, UniProt Q13148); saturation autoradiography; human, FTLD-TDP type A brain sections; 0.72 nM).
Under “isoTOP-ABPP competition ratio”, `CCCCCC=CC=C1C(=O)C=CC1CC=CCCCC(=O)O` (stereo not drawn) is recorded as 4.8 (Large ribosomal subunit protein uL14; competitive isoTOP-ABPP, measured: RPL23 cysteine peptide; proteome, soluble, MDA-MB-231; 100 µM, with: iodoacetamide probe; baseline: DMSO over compound-treated, higher = stronger cysteine blockade).
With `CC[C@H](C)[C@@H]1NC(=O)[C@H](C)NC(=O)[C@H](CCC(N)=O)NC(=O)[C@@H](NC(=O)CN)CSSC[C@@H]2NC(=O)CNC(=O)[C@H](C)NC(=O)[C@H](CC(C)C)NC(=O)[C@@H]3CSSC[C@@H](C(=O)NCC(=O)O)NC(=O)[C@H](Cc4ccccc4)NC(=O)CNC(=O)[C@H](CC(N)=O)NC(=O)[C@@H]4CCCN4C(=O)CNC(=O)[C@H](CSSC[C@H](NC(=O)[C@H](CCCNC(=N)N)NC(=O)[C@H](CCC(N)=O)NC(=O)[C@H](CCCNC(=N)N)NC(=O)[C@H](CCCCN)NC(=O)[C@H](C(C)C)NC(=O)[C@H](CCCNC(=N)N)NC(=O)[C@H](CC(N)=O)NC1=O)C(=O)N[C@@H](CCCCN)C(=O)N[C@@H](CCC(N)=O)C(=O)N[C@@H](CC(=O)O)C(=O)N[C@@H](CO)C(=O)N[C@@H](CC(=O)O)C(=O)N3)NC(=O)[C@H](C(C)C)NC2=O` the kon was 2.43e+06 ± 470000 M⁻¹ s⁻¹ (Low-density lipoprotein receptor-related protein 6, E1 domain (LRP6, Homo sapiens, UniProt O75581); binding, SPR; pH 7.5).
With `CC(CC(=O)O)c1n[nH]c2nc(N)[nH]c(=O)c2c1=O` (stereo not drawn) the melting temperature was 56.5 °C (folP; CETSA HiBiT; Escherichia coli, whole cells).
Under “BLI binding response”, `Cn1c(=O)n(C2CCC(=O)NC2=O)c2ccc(C3CCN(CC(=O)Nc4cccc(CS(=O)(=O)N5CC[C@H](Nc6cccc(-c7sc(C(=O)O)c(OCC(=O)O)c7Cl)c6)CC5(C)C)c4)CC3)cc21` (stereo partly drawn) is recorded as 0.238 a.u. (Tyrosine-protein phosphatase non-receptor type 1 (PTPN1, Homo sapiens, UniProt P18031); degrader, bio-layer interferometry; 250 nM, biotinylated protein immobilised; higher = more binding).
The remaining activity of `COc1ccccc1-c1ccncc1C(=O)Nc1nnc(OCc2ccc(Cl)cc2)s1` is reported as 95% (RECQL5 (Homo sapiens, UniProt O94762); ATPase activity, ADP-Glo; 30 µM, 1 h).
For `Cc1ccc2c(c1)N(C)C=CC2=Cc1sc2ccccc2[n+]1CC(=O)NCCOCCOCCOCCNC(=O)CCCC[C@@H]1SC[C@@H]2NC(=O)N[C@@H]21`, the Kd was 3.19 nM (T2, RNA aptamer; fluorescence titration).
`Cn1nnnc1SCc1nn(C)c2nc(N)[nH]c(=O)c2c1=O` — result for “target engagement efficiency”: 79.1% (folP; CETSA HiBiT; Escherichia coli, whole cells; concentration not given; baseline: whole cell over lysate ΔTm).
For `CCCCCC(O)/C=C/C=O` (stereo not drawn), “isoTOP-ABPP competition ratio” read 1.7 (Large ribosomal subunit protein uL14; competitive isoTOP-ABPP, measured: RPL23 cysteine peptide; proteome, soluble, MDA-MB-231; 100 µM, with: iodoacetamide probe; baseline: DMSO over compound-treated, higher = stronger cysteine blockade).
`CC(C)[C@@H]1NC(=O)[C@H](Cc2ccccc2)NC(=O)CSC[C@@H](C(N)=O)NC(=O)[C@H](CCC(=O)O)NC(=O)[C@H](CO)NC(=O)[C@H](Cc2c[nH]c3cccc(Cl)c23)NC(=O)[C@H](C2CCCCC2)NC(=O)[C@H](C(C)C)NC(=O)[C@H](Cc2ccc(O)cc2)NC(=O)[C@H](CC(=O)O)NC(=O)[C@H](Cc2c[nH]c3ccccc23)NC(=O)[C@H](Cc2ccc(N)nc2)NC(=O)[C@H](Cc2c[nH]c3ccc(Cl)cc23)NC(=O)[C@H](CCC(=O)O)NC1=O` has a remaining activity of 84.9% (Interleukin-1 receptor-like 2 (IL1RL2, Homo sapiens, UniProt Q9HB29); reporter gene (SEAP), inhibitor, HEK-Blue IL-36R reporter; HEK-Blue IL-36R cells; 0.015 µM, 6 h, with: IL-36γ 0.1 ng/mL).
With `Cc1cc(C(=O)Nc2nc3cccc(C)c3n2[C@H]2CCCCN(C(=O)/C=C/CN(C)C)C2)ccn1` the kinase activity was -7.97% and -7.91% (CDC2-like kinase 1 (Trypanosoma brucei brucei, UniProt Q382U0); ADP-Glo; 10 µM).
`CN(CCCN1CCN(C(=O)CN2CCN(CC(=O)[O-])CCN(CC(=O)[O-])CCN(CC(=O)[O-])CC2)CC1)c1ccc2nccc(C(=O)NCC(=O)N3CC(F)(F)C[C@H]3C#N)c2c1.[Lu+3]`: “quenching rate constant kq” 1.32e+12 M⁻¹ s⁻¹ (ALB; fluorescence quenching).
For `Cn1nc(CC(=O)O)c(=O)c2c(=O)[nH]c(N)nc21`, “melting temperature shift” read 23.3 °C (folP; CETSA HiBiT; Escherichia coli, cell lysate; concentration not given; baseline: DMSO).
`COc1cc(Nc2nccc(-c3cnn4nc(OC)ccc34)n2)cc(C(F)(F)F)c1` gave a remaining binding of 94% (Receptor-type tyrosine-protein kinase FLT3, autoinhibited (FLT3, Homo sapiens, UniProt P36888); binding, competition with immobilised ligand; 1 µM).
For `CCc1occc(=O)c1[O-].[Cl-].[W+4].c1cc[cH-]c1.c1cc[cH-]c1`, the enthalpy change was 1.26 kcal/mol (ALB; binding, van't Hoff fluorescence quenching; concentration not given).
`CC(C(=O)O)c1n[nH]c2nc(N)[nH]c(=O)c2c1=O` (stereo not drawn): “melting temperature shift” 4.93 °C (folP; CETSA HiBiT; Escherichia coli, whole cells; concentration not given; baseline: DMSO).
`CNC(=O)C1CCN(c2cc(C)c(F)cc2NC(=O)c2ccc(-c3cc(O)ccc3C)c(C)c2)CC1` has a remaining binding of 24% (Tyrosine-protein kinase ABL1, phosphorylated (ABL1, Homo sapiens, UniProt P00519, Y253F); binding, competition with immobilised ligand; 1 µM).
